Experimental data from different studies.
Lines come from different studies, so protocols differ. Several values in a cell are separate wells, animals, samples, runs or records. ± gives the spread as reported. Values after ≈ are worked out from the molar mass of the structure shown.

Substance | test | test system | conditions | scale | quantity | result
CCCCCCCC[N+](C)(C)CCCCCCCC | in vitro-in vivo extrapolation | human | – | – | hepatic clearance | 3.23 mL/h/g liver
CN1/C(=C/C=C2\CCCC(/C=C/C3=[N+](C)c4ccccc4C3(C)C)=C2c2ccc(CCCCCCCCCCCCCCCCCCOP(=O)(O)OCC[N+](C)(C)C)cc2)C(C)(C)c2ccccc21 | – | octanol/water | 48 h, pH 7.4, room temperature | – | logD | 4.66
CSCC[C@@H]1NC(=O)[C@H](CC(=O)O)NC(=O)CNC(=O)[C@H](CCCNC(=N)N)NC(=O)[C@H](C)NC(=O)[C@H](CCC(=O)O)NC(=O)[C@H](CCCNC(=N)N)NC(=O)[C@@H]2CSSC[C@@H]3NC(=O)[C@H](CO)NC(=O)[C@H]([C@@H](C)O)NC(=O)[C@@H]4CCCN4C(=O)[C@H](C)NC(=O)[C@H](Cc4c[nH]c5ccccc45)NC(=O)[C@H](CC(=O)O)NC(=O)CNC(=O)[C@H](CCCNC(=N)N)NC(=O)CNC(=O)[C@H](CCC(N)=O)NC(=O)[C@@H]4CCCN4C(=O)[C@@H](NC(=O)CNC(=O)C(C)F)CSSC[C@H](NC(=O)CNC(=O)[C@H](C)NC(=O)[C@H](CC(C)C)NC(=O)[C@H](CSSC[C@@H](C(=O)NCC(N)=O)NC(=O)[C@H]([C@@H](C)O)NC(=O)[C@H](CCCNC(=N)N)NC(=O)[C@@H]4CCCN4C1=O)NC(=O)[C@H](CC(=O)O)NC(=O)[C@H](CO)NC(=O)[C@H](CC(=O)O)NC(=O)[C@H](CCC(N)=O)NC(=O)[C@H](CO)NC3=O)C(=O)N[C@@H](C(C)C)C(=O)N2 (stereo partly shown) [fluorine-18 labelled] | – | nude mice U-87 MG xenograft, blood | intravenous, 2.5 h | – | tissue uptake | 0.29 ± 0.09 %ID/g
CN[C@@](C)(C[18F])C(=O)O | – | SCID mouse A549 xenograft, kidney | 60 min, post injection | – | tissue uptake | 7.3 ± 1.3 %ID/g
CC(C)C[C@@H]1NC(=O)[C@@H]2CSSC[C@@H](C(=O)NCC(N)=O)NC(=O)[C@H](Cc3ccccc3)NC(=O)CNC(=O)[C@H](CC(N)=O)NC(=O)[C@@H]3CCCN3C(=O)CNC(=O)[C@@H]3CSSC[C@H](NC(=O)[C@H](CO)NC(=O)[C@H]([C@@H](C)O)NC(=O)[C@@H]4CCCN4C(=O)[C@H](C)NC(=O)[C@H](Cc4c[nH]c5ccccc45)NC(=O)[C@H](CC(=O)O)NC(=O)CNC(=O)[C@H](CCCNC(=N)N)NC(=O)CNC(=O)[C@H](CCC(N)=O)NC(=O)[C@@H]4CCCN4C(=O)[C@@H](NC(=O)CNC(=O)c4ccc(F)cc4)CSSC[C@H](NC(=O)CNC(=O)[C@H](C)NC1=O)C(=O)N[C@@H](C(C)C)C(=O)N3)C(=O)N[C@@H](CO)C(=O)N[C@@H](CCC(N)=O)C(=O)N[C@@H](CC(=O)O)C(=O)N[C@@H](CO)C(=O)N[C@@H](CC(=O)O)C(=O)N2 [fluorine-18 labelled] | microPET imaging | nude mice, U-87 MG xenograft, tumour | intravenous, 4.44 MBq, 1 h | – | tumour uptake | 1.46 ± 0.35 %ID/g
CC(C)c1nc(CN(C)C(=O)N[C@H](C(=O)N[C@@H](Cc2ccccc2)C[C@H](O)[C@H](Cc2ccccc2)NC(=O)OCc2cncs2)C(C)C)cs1 | – | healthy human volunteers, plasma | oral, dose not given, together with: rosuvastatin plus 2D regimen | – | AUC(0-24) | 6780 ng·h/mL
CC(=O)N[C@H](CCCCNC(=O)C(C)F)C(=O)N[C@@H](CS)C(=O)N[C@@H](CS)C(=O)N[C@@H](CCC(=O)O)C(=O)N[C@@H](Cc1c[nH]cn1)C(=O)N[C@H](Cc1ccccc1)C(=O)N[C@@H](CCCNC(=N)N)C(=O)N[C@@H](Cc1c[nH]c2ccccc12)C(=O)N[C@@H](CS)C(=O)N[C@@H](CCCNC(=N)N)C(=O)N1CCC[C@H]1C(=O)N[C@H](C(N)=O)C(C)C (stereo partly shown) [fluorine-18 labelled] | – | C57BL/6 mice, male, B16-F10 tumour, bone | intravenous, 2 h | – | tissue uptake | 0.68 ± 0.37 %ID/g
CC[C@H](C)[C@H](NC(=O)[C@H](C)NC(=O)[C@H](CCCCN)NC(=O)[C@H](CC(C)C)NC(=O)[C@H](C)NC(=O)[C@@H](NC(=O)[C@H](Cc1c[nH]cn1)NC(=O)[C@H](CC(C)C)NC(=O)[C@@H](NC(=O)[C@@H](NC(=O)[C@H](CCCCN)NC(=O)[C@H](CCCCN)NC(=O)[C@H](C)NC(=O)[C@H](CO)NC(=O)[C@H](CCCCN)NC(=O)[C@H](Cc1ccccc1)NC(=O)[C@@H](NC(=O)[C@H](CCCCN)NC(=O)[C@H](CC(C)C)NC(=O)[C@H](Cc1ccccc1)NC(=O)[C@H](CO)NC(=O)[C@H](CCCCN)NC(=O)[C@H](Cc1c[nH]c2ccccc12)NC(=O)[C@H](CCCCN)NC(C)=O)[C@@H](C)O)[C@@H](C)O)C(C)C)[C@@H](C)O)C(=O)N[C@@H](CO)C(=O)N[C@@H](CO)C(N)=O | circular dichroism at 222 nm | KCl phosphate buffer | 75 µM, pH 7.4, 30 °C | – | mean residue ellipticity | -3300 deg cm² dmol⁻¹
CNC(=O)c1ccc(-c2cnn3ccc(C(=O)N(C)c4ccc(Cl)c(C(=O)OC)c4)cc23)cc1 | – | Wistar rats, both sexes, plasma | oral, 25 mg/kg/dose, 50 mg/kg/day, day 1 | – | Cmax | 0.558 ng/mL
COc1ccc(-c2cc(=O)c3c(OC)c(OC)c(OC)cc3o2)cc1 | – | C57BL/6 mouse, male, testes | oral, 1% w/w in diet, 6 weeks, orange peel extract diet | relative to: content in orange peel | tissue to peel content ratio | 0.023%
O[C@H]1CCCN[C@@H]1CCCn1cnc2c(Cl)c(Cl)ccc21 | – | human, plasma | oral, 100 mg single dose, capsule, geometric mean | – | mean residence time | 9.26 h
Cc1sc2c(c1C)C(c1ccc(Cl)cc1)=N[C@@H](CC(=O)OC(C)(C)C)c1nnc(C)n1-2 | LC-MS | Ringer's solution | 50 ng/mL, time not given, plastic vessel, plastic vial | – | recovery vs nominal | 0.53% and 0.65%
O=c1[nH]c(Cc2ccccn2)nc2c1cnn2C1CCOCC1 | – | male human, plasma | oral, 0.5 mg, single dose | – | Tmax | 30 min
CC[C@H](C)[C@H](NC(=O)[C@@H](N)CCCNC(=N)N)C(=O)N[C@H](C(=O)N1CCC[C@H]1C(=O)N[C@@H](C)C(N)=O)C(C)C | – | healthy volunteers, both sexes, plasma | intravenous infusion, 0.5 mg/kg daily, day 7, multiple ascending dose | – | AUC(0-t) | 89 ± 14 ng·h/mL
CC(C)C[C@H](NC(=O)[C@H](CCC(=O)O)NC(=O)[C@H](CCC(=O)O)NC(=O)[C@H](CC(=O)O)NC(=O)[C@H](CCC(=O)O)NC(=O)[C@H](CCC(=O)O)NC(=O)[C@H](CCC(=O)O)NC(=O)[C@@H](N)CC(=O)O)C(=O)O | – | rat, plasma | subcutaneous, 11.0 mg/kg single dose, 15 min | – | plasma concentration | 3400 ng/mL
C[C@@H]1CN(c2cccnc2F)C(=O)c2cc(COc3ccc(Cl)cn3)nn21 | – | Sprague-Dawley rat | intraperitoneal, 56.6 mg/kg, assumed dose linearity | – | estimated unbound brain Cmax | 2300 nM

Substance | test | test system | conditions | scale | quantity | result
CCOc1cc(Oc2ccc(C(F)(F)F)cc2Cl)ccc1[N+](=O)[O-] | – | Sprague-Dawley rat, male, thyroid gland | oral, 7.5 to 62.5 mg/kg daily, 8 days | relative to: thyroid over serum | tissue/plasma ratio | 4 to 5
CC1N=C(c2ccccc2F)c2cc(Nc3ccc(C(F)(F)F)cc3)ccc2NC1=O (stereo not shown) | shake flask | PBS | 24 h, pH 7.4 | – | solubility | 1.44 µM (≈ 0.615 µg/mL)
O=C(c1ccc(F)c(F)c1Nc1ccc(I)cc1F)N1CC(O)([C@@H]2CCCCN2)C1 | item: retinal detachment | human patients | oral, dose not given, dose escalation, tablet, grade G4 | – | treatment-related adverse events | 0%
CCCCCCCCCCCCCCCC[N+](C)(C)CCCCCCCCCCCCCCCC | substrate depletion | human liver microsomes | 0.5 µM, 0 to 3 h, 37 °C, together with: NADPH | – | intrinsic clearance | 0.147 mL/h/mg protein
O=C(NCCS)c1cccc(C(=O)NCCS)c1 | – | rat Sprague-Dawley male | intravenous, 1 mg/kg, 0.25 h | – | plasma concentration | 354 ng/mL
CCCCCOc1ccc(-c2ccc(-c3ccc(C(=O)N[C@H]4C[C@@H](O)[C@@H](O)NC(=O)[C@@H]5[C@@H](O)[C@@H](C)CN5C(=O)[C@H]([C@@H](C)O)NC(=O)[C@H]([C@H](O)[C@@H](O)c5ccc(O)cc5)NC(=O)[C@@H]5C[C@@H](O)CN5C(=O)[C@H]([C@@H](C)O)NC4=O)cc3)cc2)cc1 | – | patients aged 5 to <sample A years, plasma | intravenous, loading 3.0 then 1.5 mg/kg daily | – | AUC(0-24) steady state median | 80500 ng·h/mL
CC(C(=O)NCC(=O)NCC(CNC(=O)CNC(=O)C(C)N1CCN(CC(=O)[O-])CCN(CC(=O)[O-])CCN(CC(=O)[O-])CC1)(CNC(=O)CNC(=O)C(C)N1CCN(CC(=O)[O-])CCN(CC(=O)[O-])CCN(CC(=O)[O-])CC1)CNC(=O)CNC(=O)C(C)N1CCN(CC(=O)[O-])CCN(CC(=O)[O-])CCN(CC(=O)[O-])CC1)N1CCN(CC(=O)[O-])CCN(CC(=O)[O-])CCN(CC(=O)[O-])CC1.[Gd+3].[Gd+3].[Gd+3].[Gd+3] (stereo not shown) | – | human plasma | pH 7.4, 37 °C, 1.5 T | – | r1 relaxivity per Gd | 11.8
[123I]c1cncc(OC[C@@H]2CCN2)c1 | SPECT | human, thalamus | intravenous bolus, 8.1 mCi | relative to: plasma | tissue/plasma ratio | 27.5
vancomycin | pseudoallergic reaction | male CBA mouse | intravenous, maximum tolerated dose, together with: concanavalin A | relative to: control group | inflammation reaction index | 52.1%
Cc1ccc(Nc2nccc(N(C)c3ccc4c(C)n(C)nc4c3)n2)cc1S(N)(=O)=O | – | patients, plasma | oral, 600 mg, 24 h, with food, geometric mean, together with: omeprazole | – | Cmin | 22900 ng/mL
H-HGLASTLTRWAHYNALIRAFGGG-NH2 (C-amide) | – | rat, brain homogenate | intravenous, 40 µg/100 g, 3.5 h, together with: succinate + rotenone | – | basal respiration | no effect
O=C(c1cccc(-c2nc3ccccc3[nH]2)n1)N1CCN(C(=O)c2cccc(-c3nc4ccccc4[nH]3)n2)CC1 | functional observational battery | male Sprague Dawley rats | 80 mg/kg/day, day 21, 14 days dosing | – | rearing count | 22.2
COC(=O)N[C@H](C(=O)N1CCC[C@H]1C(=O)Nc1ccc([C@@H]2CC[C@@H](c3ccc(NC(=O)[C@@H]4CCCN4C(=O)[C@@H](NC(=O)OC)C(C)C)cc3)N2c2ccc(C(C)(C)C)cc2)cc1)C(C)C | – | healthy human volunteers, plasma | oral, dose not given, together with: rosuvastatin plus 2D regimen | – | AUC(0-24) | 897 ng·h/mL
CCCCCCCCCC(=O)N[C@@H](Cc1c[nH]c2ccccc12)C(=O)N[C@H](CC(N)=O)C(=O)N[C@@H](CC(=O)O)C(=O)N[C@@H]1C(=O)NCC(=O)N[C@@H](CCCN)C(=O)N[C@@H](CC(=O)O)C(=O)N[C@H](C)C(=O)N[C@@H](CC(=O)O)C(=O)NCC(=O)N[C@H](CO)C(=O)N[C@@H]([C@H](C)CC(=O)O)C(=O)N[C@@H](CC(=O)c2ccccc2N)C(=O)O[C@@H]1C | – | male Wistar rat, skin tissue | subcutaneous, 50 mg/kg | – | AUC(0-inf) | 114000 ± 21800 ng·h/mL
CSCC[C@H](NC(=O)[C@@H](N)CCC(=O)O)C(=O)N[C@@H](CCCNC(=N)N)C(=O)N[C@@H](CC(C)C)C(=O)N[C@@H](CO)C(=O)N[C@@H](CCCCN)C(=O)N[C@@H](CC1CCCCC1)C(=O)N[C@@H](Cc1ccccc1)C(=O)N[C@@H](CCCNC(=N)N)C(=O)N[C@@H](CC(=O)O)C(=O)N[C@@H](Cc1ccccc1)C(=O)N[C@@H](CC1CCCCC1)C(=O)N[C@@H](CC(C)C)C(=O)N[C@@H](CCC(N)=O)C(=O)N[C@@H](CCCNC(=N)N)C(=O)N[C@@H](CCCCN)C(=O)N[C@@H](CCCCN)C(=O)O | – | rabbit erythrocytes | concentration not given, 30 min, 37 °C | relative to: Triton X-100 | hemolysis | not toxic

Excerpt of the above:
Substance | test | test system | conditions | scale | quantity | result
[123I]c1cncc(OC[C@@H]2CCN2)c1 | SPECT | human, thalamus | intravenous bolus, 8.1 mCi | relative to: plasma | tissue/plasma ratio | 27.5
H-HGLASTLTRWAHYNALIRAFGGG-NH2 (C-amide) | – | rat, brain homogenate | intravenous, 40 µg/100 g, 3.5 h, together with: succinate + rotenone | – | basal respiration | no effect
CC[C@H](C)[C@H](NC(=O)[C@@H](N)CCCNC(=N)N)C(=O)N[C@H](C(=O)N1CCC[C@H]1C(=O)N[C@@H](C)C(N)=O)C(C)C | – | healthy volunteers, both sexes, plasma | intravenous infusion, 0.5 mg/kg daily, day 7, multiple ascending dose | – | AUC(0-t) | 89 ± 14 ng·h/mL
